Values quoted from earlier work as cited in several papers.
Compare with care: the assays were run in different laboratories. ± marks the error that the study gave. ≈ marks a conversion by molar mass, not a printed value.
Sequence of UniProt Q9Y243 (whole entry, looked up): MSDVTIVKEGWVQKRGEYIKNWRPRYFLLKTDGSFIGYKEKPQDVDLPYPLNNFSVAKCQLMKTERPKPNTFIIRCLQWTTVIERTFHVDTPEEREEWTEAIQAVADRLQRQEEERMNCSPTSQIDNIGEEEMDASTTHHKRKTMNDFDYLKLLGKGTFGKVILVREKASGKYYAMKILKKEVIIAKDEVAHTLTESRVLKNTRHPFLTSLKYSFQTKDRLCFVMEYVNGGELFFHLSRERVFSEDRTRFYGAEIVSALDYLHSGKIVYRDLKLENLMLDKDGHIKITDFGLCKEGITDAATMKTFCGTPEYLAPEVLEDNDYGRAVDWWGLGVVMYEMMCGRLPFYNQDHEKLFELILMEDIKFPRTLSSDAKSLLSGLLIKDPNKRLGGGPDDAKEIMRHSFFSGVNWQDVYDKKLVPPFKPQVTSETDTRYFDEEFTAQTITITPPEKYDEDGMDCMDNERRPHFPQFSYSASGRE
Sequence of UniProt P42336 (whole entry, looked up): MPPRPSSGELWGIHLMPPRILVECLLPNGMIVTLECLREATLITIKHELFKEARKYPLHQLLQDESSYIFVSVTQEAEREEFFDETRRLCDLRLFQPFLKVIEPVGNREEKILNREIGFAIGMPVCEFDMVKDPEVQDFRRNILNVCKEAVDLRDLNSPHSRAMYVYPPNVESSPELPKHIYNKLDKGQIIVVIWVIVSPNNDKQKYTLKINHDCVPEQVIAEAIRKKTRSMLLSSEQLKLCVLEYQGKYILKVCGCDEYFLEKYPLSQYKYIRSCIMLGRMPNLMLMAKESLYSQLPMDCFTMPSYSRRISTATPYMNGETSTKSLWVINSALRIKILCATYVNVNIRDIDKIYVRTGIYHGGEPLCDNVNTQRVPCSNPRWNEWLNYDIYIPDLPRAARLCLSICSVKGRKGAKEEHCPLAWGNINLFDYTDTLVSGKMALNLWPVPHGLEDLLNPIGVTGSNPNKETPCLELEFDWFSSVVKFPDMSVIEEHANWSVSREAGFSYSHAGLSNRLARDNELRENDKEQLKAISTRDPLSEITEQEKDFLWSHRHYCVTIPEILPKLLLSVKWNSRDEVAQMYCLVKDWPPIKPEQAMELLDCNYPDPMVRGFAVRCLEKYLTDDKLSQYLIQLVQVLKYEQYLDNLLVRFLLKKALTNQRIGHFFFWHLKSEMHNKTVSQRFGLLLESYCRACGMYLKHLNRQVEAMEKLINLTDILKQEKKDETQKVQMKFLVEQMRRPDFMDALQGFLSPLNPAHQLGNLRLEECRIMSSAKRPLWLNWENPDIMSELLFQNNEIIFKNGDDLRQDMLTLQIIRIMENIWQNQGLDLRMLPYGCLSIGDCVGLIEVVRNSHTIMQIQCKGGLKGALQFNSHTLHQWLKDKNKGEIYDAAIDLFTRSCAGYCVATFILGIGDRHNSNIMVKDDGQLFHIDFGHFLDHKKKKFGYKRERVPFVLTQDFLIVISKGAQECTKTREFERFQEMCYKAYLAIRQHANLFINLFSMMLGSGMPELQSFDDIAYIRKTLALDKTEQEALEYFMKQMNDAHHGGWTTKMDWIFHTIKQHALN
Sequence of UniProt P51817 (whole entry, looked up): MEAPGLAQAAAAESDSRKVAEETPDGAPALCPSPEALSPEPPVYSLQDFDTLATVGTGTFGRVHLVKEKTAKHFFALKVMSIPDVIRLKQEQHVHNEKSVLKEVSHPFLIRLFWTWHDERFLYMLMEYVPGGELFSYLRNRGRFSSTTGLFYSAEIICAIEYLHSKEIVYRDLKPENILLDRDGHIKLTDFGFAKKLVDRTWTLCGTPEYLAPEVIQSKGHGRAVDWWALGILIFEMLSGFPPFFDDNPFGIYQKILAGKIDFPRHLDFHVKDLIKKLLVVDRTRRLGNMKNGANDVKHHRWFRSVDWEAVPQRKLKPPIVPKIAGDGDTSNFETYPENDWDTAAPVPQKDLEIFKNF

Nc1cc(C(F)(F)F)c(-c2nc(N3CCOCC3)nc(N3CCOCC3)n2)cn1 — remaining activity (RAC-gamma serine/threonine-protein kinase (AKT3, Homo sapiens, UniProt Q9Y243); enzyme activity; 10 µM; baseline: untreated): 97%
CCCCCCCCCCCCCCCC(=O)N[C@@H](CCC(=O)NCCCC[C@H](NC(=O)[C@H](C)NC(=O)[C@H](C)NC(=O)[C@H](CCC(N)=O)NC(=O)CNC(=O)[C@H](CCC(=O)O)NC(=O)[C@H](CC(C)C)NC(=O)[C@H](Cc1ccc(O)cc1)NC(=O)[C@H](CO)NC(=O)[C@H](CO)NC(=O)[C@@H](NC(=O)[C@H](CC(=O)O)NC(=O)[C@H](CO)NC(=O)[C@@H](NC(=O)[C@H](Cc1ccccc1)NC(=O)[C@@H](NC(=O)CNC(=O)[C@H](CCC(=O)O)NC(=O)[C@H](C)NC(=O)[C@@H](N)Cc1cnc[nH]1)[C@@H](C)O)[C@@H](C)O)C(C)C)C(=O)N[C@@H](CCC(=O)O)C(=O)N[C@@H](Cc1ccccc1)C(=O)N[C@H](C(=O)N[C@@H](C)C(=O)N[C@@H](Cc1c[nH]c2ccccc12)C(=O)N[C@@H](CC(C)C)C(=O)N[C@H](C(=O)N[C@@H](CCCNC(=N)N)C(=O)NCC(=O)N[C@@H](CCCNC(=N)N)C(=O)NCC(=O)O)C(C)C)[C@@H](C)CC)C(=O)O — cholecystitis incidence (overweight or obese adults; 3.0 mg): 0.6%
NC[C@@]1(CC(=O)O)[C@@H]2CC[C@H]3C[C@@H]2[C@@H]1C3 — faecal excretion (healthy humans; 40 mg; baseline: dose): 6.55%
C[Si]1(C)O[Si](C)(C)O[Si](C)(C)O[Si](C)(C)O[Si](C)(C)O1 — log KAW (28 °C): 1.1
CN(C)C(=O)c1cc2cnc(Nc3ccc(N4CCNCC4)cn3)nc2n1C1CCCC1 — adverse event incidence (refers to: hyperglycemia; advanced solid tumour or lymphoma patients; dose not given, continuous dosing; baseline: patients): 26.3%
CCCC(CCC)C(=O)O — EC10 (small eyes; zebrafish embryo; nominal concentration): 400 µM
CO[C@]1(C(=O)N[C@@H](C)c2ccc(-n3cc(F)cn3)nc2)CC[C@H](c2nc(C)cc(Nc3cc(C)[nH]n3)n2)CC1 — terminal half-life (human; administered alone): 14.6 h
CO[C@H]1/C=C/O[C@@]2(C)Oc3c(C)c(O)c4c(O)c(c(/C=N/N5CCN(C)CC5)c(O)c4c3C2=O)NC(=O)/C(C)=C\C=C\[C@H](C)[C@H](O)[C@@H](C)[C@@H](O)[C@@H](C)[C@H](OC(C)=O)[C@@H]1C — IC50 (OATP1B3; literature maximum): 190 µM
CNC(C)C1CCC(N)C(OC2C(N)CC(N)C(OC3OCC(C)(O)C(NC)C3O)C2O)O1 (centres unmarked) — MIC (Pseudomonas aeruginosa; clinical isolate RKI-No_462/13): 4 µg/mL (≈ 8.38 µM)
Cc1cc(NC(=O)c2cccc(NC(=O)/C=C/CN(C)C)c2)ccc1Nc1nccc(-c2cccnc2)n1 — remaining activity (cAMP-dependent protein kinase catalytic subunit PRKX (PRKX, Homo sapiens, UniProt P51817); enzyme activity, inhibitor; 1 µM; baseline: vehicle): 0%
CC(=O)OCC(CCn1cnc2cnc(N)nc21)COC(C)=O — oral bioavailability (rat; 40 mg/kg): 41%
CC1(C)CCC(c2ccc(Cl)cc2)=C(CN2CCN(c3ccc(C(=O)NS(=O)(=O)c4ccc(N[C@H](CCN5CCOCC5)CSc5ccccc5)c(S(=O)(=O)C(F)(F)F)c4)cc3)CC2)C1 — lymphatic bioavailability (thoracic lymph duct-cannulated dog): ~59%
C=CC(=O)N1CCC(C(=O)NCC(=O)N2CCN(c3nc(-c4cnc(N)nc4C(F)F)nc(N4CCOCC4)n3)CC2)CC1 — remaining activity (Phosphatidylinositol 4,5-bisphosphate 3-kinase catalytic subunit alpha isoform (PIK3CA, Homo sapiens, UniProt P42336); kinase activity; 1 µM): 0.4%
COc1ccc2c(c1)c(CC(=O)O)c(C)n2C(=O)c1ccc(Cl)cc1 — renal clearance (human): 0.195 mL/min/kg
C[C@H]1COCCN1c1nc(-c2cnc(N)cc2C(F)F)nc(N2CCOCC2)n1 — GI50 (SW-620): 0.665 µM
CCN(CC)CCN(CCNCCc1ccc(O)c2[nH]c(=O)sc12)C(=O)CCOCCc1cccc2ccccc12 — lung deposited fraction (human; inhaled): 0.4
Cc1cc(Nc2ccc(S(F)(F)(F)(F)F)cc2)n2ncnc2n1 — kinetic solubility (PBS; pH 6.5): 71 µM (≈ 24.9 µg/mL)
C[C@]12CC[C@H](O)CC1=CC[C@@H]1[C@@H]2CC[C@]2(C)C(n3cnc4ccccc43)=CC[C@@H]12 — half-life (male CD-1 mice; oral, dose not given): 1.26 h
CS(=O)(=O)CCNCc1ccc(-c2ccc3ncnc(Nc4ccc(OCc5cccc(F)c5)c(Cl)c4)c3c2)o1 — volume of distribution (dog; dose not given): 5.7 L/kg
Cc1c(C#N)cccc1[C@@H](C)Nc1nnc(C)c2cnc(N3CCOCC3)cc12 — IC50 (NCI-H1666; 3D cell viability; 14 d): 0.152 ± 0.0954 µM
C[C@@H](Oc1cc(-c2cnn(C3CCNCC3)c2)cnc1N)c1c(Cl)ccc(F)c1Cl — cardiac event incidence (patients; dose not given, monotherapy): 5%
COc1cc(N2CCC3(CCN(C)CC3)CC2)ccc1Nc1ncc(Cl)c(Nc2ccccc2P(C)(C)=O)n1 — excretion (human, urine; dose not given): 20.2%
CC1(C)S[C@@H]2[C@H](NC(=O)[C@H](N)c3ccccc3)C(=O)N2[C@H]1C(=O)O — MIC (Pseudomonas aeruginosa; clinical isolate RKI-No_25/14): > 16 µg/mL
C=CC(=O)N1C[C@H](Nc2ncnc3[nH]ccc23)CC[C@@H]1C — variability of steady-state Cmax (healthy humans; dose not given): 38%
N#C[C@@]1(c2ccc3c(N)ncnn23)O[C@H](CO)[C@@H](O)[C@H]1O — oral bioavailability (dog; 5 mg/kg oral, 2 mg/kg intravenous, unadjusted NCATS data): 93%
CCCCOC(=O)c1ccc(O)cc1 — logD (pH 7.4): 3.51
Cc1ccc(C)c(OCCCC(C)(C)C(=O)O)c1 — IC50 (OATP1B1; literature minimum): 4 µM
N#CCNC(=O)c1ccc(-c2ccnc(Nc3ccc(N4CCOCC4)cc3)n2)cc1 — recovered drug-related material (human, urine; oral, time not given, single dose 14C-labelled; baseline: dose): 27.5%
O=C(c1cccnc1-c1ccncc1)N1CCC(O)(Cc2ccccc2)CC1 — TEAE incidence (children with Dravet or Lennox-Gastaut syndrome; dose not given): 80.3%
O=C1Cc2cc(CCN3CCN(c4nsc5ccccc45)CC3)c(Cl)cc2N1 — activity outcome (HepG2; mitochondrial membrane potential; concentration not given, Tox21): inactive
COc1cnc(-n2cnc(C)n2)c2[nH]cc(C(=O)C(=O)N3CCN(C(=O)c4ccccc4)CC3)c12 — AUC decrease (healthy subjects; dose not given, drug interaction study, with: rifampin): 82%
CC(C)(c1ccc(O)cc1)c1ccc(O)cc1 — half-life (rat; oral, 0.1 mg/kg): 3 h

Excerpt of the above:
CC(C)(c1ccc(O)cc1)c1ccc(O)cc1 — half-life (rat; oral, 0.1 mg/kg): 3 h
CO[C@]1(C(=O)N[C@@H](C)c2ccc(-n3cc(F)cn3)nc2)CC[C@H](c2nc(C)cc(Nc3cc(C)[nH]n3)n2)CC1 — terminal half-life (human; administered alone): 14.6 h
Cc1ccc(C)c(OCCCC(C)(C)C(=O)O)c1 — IC50 (OATP1B1; literature minimum): 4 µM
